Assay results of several laboratories.
Each line is one published result; not all experiments were run side by side.

OB(O)c1ccc(OCc2ccccc2)nc1F — MIC (Enterobacter cloacae; bacterial growth; AmpC overproducer clinical isolate; without cefotaxime): > 2050 mg/L
Cc1c(CN(C)C(=O)/C=C/c2cnc3c(c2)CC(N)C(=O)N3)oc2ccccc12 (centres unmarked) — MIC (Escherichia coli; MG1655 FabI G148S resistant): > 64 mg/L
COc1ccc(C2=[N+]([O-])c3ccccc3N3CC(C)(C)CN=C23)cc1 — MIC (Prevotella spp.): 0.125 to 0.5 mg/L
CC1(C)S[C@@H]2[C@H](NC(=O)[C@H](NC(=O)C3=C(O)C(c4ccccc4F)NC3=O)c3ccccc3)C(=O)N2[C@H]1C(=O)O (some centres unmarked) — MIC (Escherichia coli; broth microdilution; JW0790-2 fiu deletion mutant; ferric iron uptake gene): 50 mg/L
C[N+]1=C2C(c3ccc(Cl)cc3)=[N+]([O-])c3ccccc3N2CCC1 — MIC (Prevotella spp.): 4 to 16 mg/L
CCCCCCCCCCCCCC(=O)N[C@H]1C(=O)N[C@@H](CN)C(=O)N[C@@H](CO)C(=O)N[C@@H](Cc2ccc(O)cc2)C(=O)O[C@H]1C — MIC (Staphylococcus aureus; SH1000; added: sphingomyelin, molar ratio 1): 2 mg/L
CC(=O)N[C@@H](CC(C)C)C(=O)N[C@H]1CSSC[C@@H](C(=O)N2CCC[C@H]2C(N)=O)NC(=O)[C@H]([C@@H](C)O)NC(=O)[C@H](C(C)C)NC(=O)[C@H]([C@@H](C)O)NC(=O)CNC(=O)[C@H](CC(C)C)NC(=O)[C@H](Cc2ccccc2)NC(=O)[C@H](Cc2ccc(O)cc2)NC(=O)[C@H](CC(C)C)NC(=O)[C@H](CCCCN)NC(=O)[C@H](Cc2ccccc2)NC(=O)[C@H](CCCNC(=N)N)NC(=O)[C@H](CCCCN)NC(=O)[C@H](CC(C)C)NC(=O)[C@H](CCCCN)NC(=O)[C@@H]2CCCN2C(=O)[C@H](CCCCN)NC(=O)[C@H](C(C)C)NC(=O)[C@H](CC(N)=O)NC(=O)[C@H](Cc2ccc(O)cc2)NC(=O)[C@H]([C@@H](C)O)NC1=O — MIC (Pseudomonas fluorescens; broth dilution; CGMCC strain; 24 h): 1.25 to 2.5 µM
CC(C)CCCCCCCCC/C=C/C(=O)N[C@@H](CC(=O)O)C(=O)N[C@H]1CNC(=O)[C@@H]2CCCN2C(=O)[C@H](C(C)C)NC(=O)[C@@H](CN)NC(=O)CNC(=O)[C@H](CC(=O)O)NC(=O)CNC(=O)[C@H](CC(=O)O)NC(=O)[C@H](CC(=O)O)NC(=O)[C@H]2CCCCN2C1=O — MIC (Staphylococcus aureus; broth microdilution; MRSA USA300, Mueller-Hinton broth, Mg2+ 10 mg/L; 16 h, 37 °C, added: Ca2+ 5 mM): 2 mg/L
CC(=O)N[C@@H](CC(C)C)C(=O)N[C@H]1CSSC[C@@H](C(=O)N2CCC[C@H]2C(N)=O)NC(=O)[C@H]([C@@H](C)O)NC(=O)[C@H](C(C)C)NC(=O)[C@H]([C@@H](C)O)NC(=O)CNC(=O)[C@H](CCCCN)NC(=O)[C@H](Cc2ccccc2)NC(=O)[C@H](Cc2ccc(O)cc2)NC(=O)[C@H](CCCCN)NC(=O)[C@H](CCC(=O)O)NC(=O)[C@H](Cc2ccccc2)NC(=O)[C@H](CCCNC(=N)N)NC(=O)[C@H](CCCCN)NC(=O)[C@H](CC(C)C)NC(=O)[C@H](CC(=O)O)NC(=O)[C@@H]2CCCN2C(=O)[C@H](CCCCN)NC(=O)[C@H](C(C)C)NC(=O)[C@H](CCCCN)NC(=O)[C@H](CCCCN)NC(=O)[C@H]([C@@H](C)O)NC1=O — MIC (Pseudomonas fluorescens; broth dilution; CGMCC strain; 24 h): > 40 µM
CC(C)C[C@@H](NC(=O)[C@@H](CC(C)C)NC(=O)[C@@H](CCCCN)NC(=O)[C@@H](CCCCNC(=O)[C@@H](CC(C)C)NC(=O)[C@@H](CC(C)C)NC(=O)[C@@H](CCCCNC(=O)[C@@H](CC(C)C)NC(=O)[C@@H](CCCCN)NC(=O)[C@@H](CCCCNC(=O)[C@@H](CC(C)C)NC(=O)[C@H](N)CCCCN)NC(=O)[C@@H](CC(C)C)NC(=O)[C@H](N)CCCCN)NC(=O)[C@@H](CC(C)C)NC(=O)[C@@H](CCCCN)NC(=O)[C@@H](CCCCNC(=O)[C@@H](CC(C)C)NC(=O)[C@H](N)CCCCN)NC(=O)[C@@H](CC(C)C)NC(=O)[C@H](N)CCCCN)NC(=O)[C@@H](CC(C)C)NC(=O)[C@@H](CC(C)C)NC(=O)[C@@H](CCCCNC(=O)[C@@H](CC(C)C)NC(=O)[C@@H](CCCCN)NC(=O)[C@@H](CCCCNC(=O)[C@@H](CC(C)C)NC(=O)[C@H](N)CCCCN)NC(=O)[C@@H](CC(C)C)NC(=O)[C@H](N)CCCCN)NC(=O)[C@@H](CC(C)C)NC(=O)[C@@H](CCCCN)NC(=O)[C@@H](CCCCNC(=O)[C@@H](CC(C)C)NC(=O)[C@H](N)CCCCN)NC(=O)[C@@H](CC(C)C)NC(=O)[C@H](N)CCCCN)C(N)=O — MIC (Enterobacter cloacae; broth microdilution; blaNDM; 20 h, 37 °C): 16 mg/L
CN[C@H](CC(C)C)C(=O)N[C@H]1C(=O)N[C@@H](CC(N)=O)C(=O)N[C@H]2C(=O)N[C@H]3C(=O)N[C@H](C(=O)N[C@H](C(=O)NCC(N)=O)c4cc(O)cc(O)c4-c4cc3ccc4O)[C@H](O)c3ccc(c(Cl)c3)Oc3cc2cc(c3O[C@@H]2O[C@H](CO)[C@@H](O)[C@H](O)[C@H]2O[C@H]2C[C@](C)(NCc3ccc(OCc4cn(CC(=O)N[C@H](C(=O)N[C@@H](CCN)C(=O)N[C@H]5CCNC(=O)[C@H]([C@@H](C)O)NC(=O)[C@H](CCN)NC(=O)[C@H](CCN)NC(=O)[C@H](CC(C)C)NC(=O)[C@@H](CC(C)C)NC(=O)[C@H](CCN)NC5=O)[C@@H](C)O)nn4)c(OC)c3)[C@H](O)[C@H](C)O2)Oc2ccc(cc2Cl)[C@H]1O — MIC (Enterococcus faecium; VRE vanB): 0.19 µM
[O-][N+]1=C(c2ccccc2)C2=NCCCN2c2ncccc21 — MIC (Prevotella spp.): 0.06 to 0.125 mg/L
CC[C@H](C)[C@H](NC(=O)[C@H](CCCNC(=N)N)NC(=O)[C@H](CO)NC(=O)[C@H](Cc1ccc(O)cc1)NC(=O)[C@@H](NC(=O)[C@@H](NC(=O)[C@H](C)NC(=O)CNC(=O)[C@H](CCCCN)NC(=O)[C@H](CCCCN)NC(=O)CCNC(=O)CCCCCNC(=O)[C@H](CCCNC(=N)N)NC(=O)CCCCCNC(=O)[C@H](CCCNC(=N)N)NC(=O)[C@H](CCCNC(=N)N)NC(=O)CCCCCNC(=O)[C@H](CCCNC(=N)N)NC(=O)[C@H](CCCNC(=N)N)NC(=O)CCCCCNC(=O)[C@H](CCCNC(=N)N)NC(=O)[C@H](CCCNC(=N)N)NC(=O)CCCCCNC(=O)[C@@H](N)CCCNC(=N)N)C(C)C)[C@@H](C)O)C(=O)N[C@@H](CO)C(=O)NCC(=O)N[C@@H](CCC(N)=O)C(=O)N[C@@H](Cc1ccc(O)cc1)C(=O)N[C@@H](CCCCN)C(=O)O — MIC (Escherichia coli; broth microdilution; BAA 41, resistant, Mueller-Hinton broth): 12 µM
N=C(N)NCCC[C@H](NC(=O)[C@H](CCCNC(=N)N)NC(=O)[C@H](Cc1ccccc1)NC(=O)[C@H](CO)NC(=O)[C@H](Cc1ccccc1)NC(=O)[C@H](Cc1c[nH]c2ccccc12)NC(=O)[C@H](Cc1ccccc1)NC(=O)[C@H](CO)NC(=O)[C@H](Cc1ccccc1)NC(=O)[C@H](CCCNC(=N)N)NC(=O)[C@@H](N)CCCNC(=N)N)C(N)=O — MIC (Lacticaseibacillus rhamnosus; 1.038, probiotic strain; 24 h, 37 °C, tested up to 128 µM): 128 µM
C=C(NC(=O)c1csc(-c2nc3c(cc2O)-c2nc(cs2)C(=O)NC(C(C)O)C(=O)NC(=C(C)OC)c2nc(cs2)C(=O)NC2c4nc(cs4)C(=O)NC(COC(=O)c4c5c6c(cccc6n4O)COC(=O)C(OC4CC(C)(O)C(N(C)C)C(C)O4)C2OC5)c2nc-3cs2)n1)C(N)=O (centres unmarked) — MIC (Staphylococcus aureus; MRSA strain 2, vancomycin-induced; 20 generations): 0.0156 mg/L
CC[C@H](C)[C@@H]1NC(=O)[C@@H]([C@@H](C)O)NC(=O)CNC(=O)[C@H](CC(=O)O)NC(=O)CNC(=O)[C@H](CC(=O)O)NC(=O)CNC(=O)[C@H]2CCCCN2C(=O)[C@@H](NC(=O)[C@H](CC(=O)O)NC(=O)/C=C/CCCCCCCCCC(C)C)CNC(=O)[C@@H]2CCCN2C1=O — MIC (Enterococcus faecium; broth microdilution; daptomycin-resistant isolate, Mueller-Hinton broth, Mg2+ 10 mg/L; 16 h, added: Ca2+ 0 mM): > 128 mg/L
CC[C@H](C)[C@H](NC(=O)[C@H](C)NC(=O)CNC(=O)[C@H](C)NC(=O)[C@H](CCCCN)NC(=O)[C@H](CO)NC(=O)[C@H](C)NC(=O)[C@H](CCSC)NC(=O)CN)C(=O)N[C@@H](C)C(=O)NCC(=O)N[C@@H](CCCCN)C(=O)N[C@H](C(=O)N[C@@H](C)C(=O)N[C@@H](CCCCN)C(=O)N[C@H](C(=O)N[C@@H](C)C(=O)N[C@@H](CC(C)C)C(=O)N[C@@H](CCCCN)C(=O)N[C@@H](C)C(=O)N[C@@H](CC(C)C)C(N)=O)C(C)C)[C@@H](C)CC — MIC (Escherichia coli; 3538, wild type, minimal salts medium; 18 h, 37 °C): 20 mg/L

For quick reference, copied from above:
CN[C@H](CC(C)C)C(=O)N[C@H]1C(=O)N[C@@H](CC(N)=O)C(=O)N[C@H]2C(=O)N[C@H]3C(=O)N[C@H](C(=O)N[C@H](C(=O)NCC(N)=O)c4cc(O)cc(O)c4-c4cc3ccc4O)[C@H](O)c3ccc(c(Cl)c3)Oc3cc2cc(c3O[C@@H]2O[C@H](CO)[C@@H](O)[C@H](O)[C@H]2O[C@H]2C[C@](C)(NCc3ccc(OCc4cn(CC(=O)N[C@H](C(=O)N[C@@H](CCN)C(=O)N[C@H]5CCNC(=O)[C@H]([C@@H](C)O)NC(=O)[C@H](CCN)NC(=O)[C@H](CCN)NC(=O)[C@H](CC(C)C)NC(=O)[C@@H](CC(C)C)NC(=O)[C@H](CCN)NC5=O)[C@@H](C)O)nn4)c(OC)c3)[C@H](O)[C@H](C)O2)Oc2ccc(cc2Cl)[C@H]1O — MIC (Enterococcus faecium; VRE vanB): 0.19 µM
